Measurements collected from several papers.
Parts stem from different laboratories: compare values within a part only. Positions count from the first letter of the parent shown.

Series 1 — target: CCNB3, cyclin fold, Cln2 fusion (human); method: yeast growth competition, sequencing; matrix: yeast; setting: weak parent motif; relative to: not given; direction: higher = stronger binding
Starting sequence: CDAN1 docking peptide (human); RGARSQLFPPTEA
Change	normalised enrichment score
G2A	0.23
R4A	-0.213
P10A	0.264
S5A	0.209
L7A	-0.0522

Series 2 — method: protein binding microarray; molecule type: double-stranded DNA, one strand shown; matrix: in vitro; concentration: not given; relative to: not given; direction: higher = stronger binding
Target: Histone acetyltransferase KAT6A, both winged helices, GST fusion (KAT6A, Homo sapiens, UniProt Q92794, residues 1-181)
Setting: 8-mer, flanks averaged, mean of 2 arrays, mostly near background
Residues (chain): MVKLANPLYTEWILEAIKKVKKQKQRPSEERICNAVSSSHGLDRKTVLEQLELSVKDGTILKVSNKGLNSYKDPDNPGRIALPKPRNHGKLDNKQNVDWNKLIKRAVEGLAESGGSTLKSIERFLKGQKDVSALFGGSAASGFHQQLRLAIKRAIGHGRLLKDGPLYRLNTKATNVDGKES
Strand	E-score
AGGGCCAT	-0.195
GCCCTGCA	0.0241
ACTTGGTC	-0.0893
ACTCATCA	-0.151
CAATCACC	-0.0567
CGTATTGA	0.0456
AGAACGTC	-0.113
ATTTCGTA	-0.107
ATAATGGC	0.153
AAGCCGCG	0.354

Series 3 — method: DHFR PCA, deep sequencing; matrix: yeast; added: (+)-ABA 710 µM; relative to: wild-type fitted maximum; direction: higher = stronger binding
Target: ABI1, truncated, D143A, DHFR fusion (Arabidopsis thaliana)
Setting: methotrexate growth selection, single substitutions
Starting sequence: PYL1, truncated, DHFR fusion (Arabidopsis thaliana); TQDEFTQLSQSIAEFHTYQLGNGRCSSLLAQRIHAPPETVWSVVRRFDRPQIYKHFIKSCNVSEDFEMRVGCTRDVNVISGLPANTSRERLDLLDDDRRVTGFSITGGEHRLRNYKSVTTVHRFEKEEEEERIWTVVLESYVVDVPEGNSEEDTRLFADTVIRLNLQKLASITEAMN
Change	relative binding score
Y141I	-3.53%
S59K	96.4%
G21Y	99%
Q10N	104%
R163W	53%
H34S	104%
F66H	100%

Mixed results
Molecule	target	test	test system	setting	scale	quantity	value
PhoQ, residues 284 288 289 292 302 303 SSLVEF	PhoP, residues 12 14 15 18 19 STWGI (Escherichia coli, UniProt P23836)	Sort-seq, measured: YFP reporter	E. coli	PhoQ-PhoP variant library, added: 10 µM Mg2+	relative to: high Mg2+ state, higher = stronger signaling	fold induction	1.66

Excerpt of the above (series 2):
Strand	E-score
ATTTCGTA	-0.107
ATAATGGC	0.153
